# Published values of several laboratories.
# Numbered parts are unrelated; each lists some results of a single study.

# Sample 1 — method: Sort-seq; measured: YFP reporter; matrix: E. coli; notes: PhoQ-PhoP variant library; together with: 10 µM Mg2+; relative to: high Mg2+ state; direction: higher = stronger signaling
# Molecule: PhoQ, residues 284 288 289 292 302 303 TNSAEL
target,fold induction
"PhoP, residues 12 14 15 18 19 SFCSL (Escherichia coli, UniProt P23836)",30.4
"PhoP, residues 12 14 15 18 19 AYFRS (Escherichia coli, UniProt P23836)",19.8
"PhoP, residues 12 14 15 18 19 HHYTI (Escherichia coli, UniProt P23836)",1.26

# Sample 2 — method: RNA Bind-n-Seq; molecule type: RNA; matrix: in vitro; concentration: 200 nM; notes: whole 134-nt RNA, ends assumed; together with: 150 mM KCl; relative to: input library; direction: higher = stronger binding
# Target: Fragile X messenger ribonucleoprotein 1, C-terminal low-complexity region (Fmr1, Mus musculus, UniProt P35922)
# All sequences stand within: GGGAGUUCUACAGUCCGACGAUC … UGGAAUUCUCGGGUGUCAAGG
Strand,log2 enrichment
UGGGAGGUGGAUUUUGUUUAUUUUUUUAGCUCAUUUCCAGGGGUGGGAAUUUUUUUUUAAUAUGUGUCAUGAAUAAAGUUGUUUUCGAAA,0.483
CAAGUCCUGUGCUACACAUCGUAUGUACCGAAUCGGGGAAAGGAAAGGGAAAGGGAAAGUAUUAUGUUACGCCGUUCGGAUCUGCACUUC,0.0487
UAACUUUAGAGGAGGAUCUGAUGGAUAUCGCAGUGGACGUGGAUUUGGGGAUGGCUAUAAUGGGUAUGGAGGAGGACCUGGAGGUGGCAA,0.299
AAGUCCUGUGCUACACAUCGUAUGUACCGAAUCGGGGAAAAGGAAAAGGGAAAAGGAAAGUAUUAUGUUACGCCGUUCGGAUCUGCACUU,-0.514
AAGUCCUGUGCUACACAUCGUAUGUACCGAAUCAAACCCCCAAACCCAAAUUUAAAAAAGUAUUAUGUUACGCCGUUCGGAUCUGCACUU,-0.0291
CCUGUGCUACACAUCGUAUGUACCGAAUCGGGGAAAAAAGGAAAAAAGGGGAAAAAAGGGGAAAGUAUUAUGUUACGCCGUUCGGAUCUG,-0.555
AGUCCUGUGCUACACAUCGUAUGUACCGAAUCGGGAGGGAAAAAGGGAAAAAAAGGGAAAGUAUUAUGUUACGCCGUUCGGAUCUGCACU,0.0904
UAACUUUAGAGGAGGAUCUGAUGGAUAUGGCAGUGGACGUGGAUUUGGGGAUGGCUAUAAUAGGUAUGGAGGAGGACCUGGAGGUGGCAA,0.35
UCAAGUCCUGUGCUACACAUCGUAUGUACCGAAUCGGGGUUGGGUUGGGGUUGGGAAAGUAUUAUGUUACGCCGUUCGGAUCUGCACUUC,1.36
CCUCAGUGUCAUUUAUGAAAAGAGGGGACCAGAAGCCAAAGACUUAGUAUAUUUUCUUUUCCUCUGUCCCUUCCCCCAUAAGCCUCCAUU,0.0111
GUCCUGUGCUACACAUCGUAUGUACCGAAUCGGGAAAAAAAGGGUUUUUUUGGGUGGGAAAGUAUUAUGUUACGCCGUUCGGAUCUGCAC,0.17
UUUUUCCAGAGCUCACAACGACCUGGGGCUGAGGACAAUGUCCUCAAUGAGAUCGUGAGUAUCUUGCAGCCCACCCAGGUCCCUGAGCAG,-0.852
AAGUCCUGUGCUACACAUCGUAUGUACCGAAUCGGGAAAGGGGAAAGGGAAAGGGGAAAGUAUUAUGUUACGCCGUUCGGAUCUGCACUU,0.282
UCUAUUCAUAAGAACCCCAACACAUCGGAGCCCCAACACCUGUUGGUGAUGAAGGGCGCCCCAGAAAGGAUCCUAGACCGUUGCAGCUCU,-0.303

# Sample 3 — method: RNA Bind-n-Seq; molecule type: RNA; matrix: in vitro; concentration: 365 nM; relative to: no-protein control; direction: higher = stronger binding
# Target: RNA binding protein fox-1 homolog 2, RRM domain, GST-SBP tag (RBFOX2, Homo sapiens, UniProt O43251-10, residues 100-194)
# Notes: natural RNA segment, single round, ends assumed
# All sequences stand within: GGGAGUUCUACAGUCCGACGAUC … UGGAAUUCUCGGGUGCCAA
# Target sequence (chain): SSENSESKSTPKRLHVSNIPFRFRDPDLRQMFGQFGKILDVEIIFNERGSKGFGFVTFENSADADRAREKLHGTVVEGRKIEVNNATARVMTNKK
Strand,RBNS enrichment (R)
UUGCAGAGUUCUUACCAUUCCUGUAAAUGUUUUGACUUGUUGCAGAAAUUCCUAUCUACUUUAUUAAGCAGUAUUGAUCUGACUGUGGAAACAUCCUCUCACUUGCAUUC,0.605
UCCAGACCUUAUCCACAACCCGGGGCUUGGAAAGGAAGGUAUUUUGGAAUCACACCCUCCGGUUAUGUUGCUCCAGUAAAAUCUUGCCUGGAAAGAGGCAGUCUUCUUAG,0.593
UAGUUGAGUUGUAUUGCUUCCUGUUCUUCAAGCUUAAUUUGAACUGUCUAAUAAAAAGAAGUAAUUAUUUGGUUCUACUGCCUUUAUUUGAUCUAUUUCUAGGUAUCUCC,1.15
UUUUGAUUUCAGUGCCUGUUGGGGACUUGAUUUCUUCUCAGUUUUGUUUGUUUGUUUGUUUCCUUAAUCUGGCUCAUUUGAAAUUUCUUCUCCCUCUCAACCAUCCCACU,1.69
GAUUUCAUGAAUGAAAUAAAGAUUUGUUAGUGGGAAGCAAAUAAAACACAUUAAGUUGAUUGAGUUGGACAUACGGUUCCUGAAGUAUCUUGAUUUGUGUUUUUUUUUUU,0.938
AAGGAGGACCAGUCUGAAGAUAAGAAAAGACCCAGCCUGCCUUCCAGCCCGUCUCCUGGCCUCCCAAAGGCUUCUGCCACCUCAGCCACUCUGGAGCUGGAUAGACUGAU,0.288
AGUAUGUCAUCCGUUAUAGUUUCCCCAUGCUUUCAGCGCAUGGCCAUGAGAUUUUUACAUGUGCAUAAGUAUUUAGCCAAUACACAUUUUGCUGACUUCUUUAACCAUUU,0.326
CCCUUCUCCUGGGGUGAUUGAUGGCCUGAGCCUGGGGUCCUGGUAGUAGAGACCCAGCUGGCCUGGGGUCUGCUUUCCGACAUUUUGCCUCUCUCACUGGUCAUGUAUUU,0.325
AGGCUUUGCUUACUAAGUUUCUGAGUGGCGGAGUGGCCAAACCCUAGAGCUAGCAGUUCCCAUUCAGGCAAACAAGGGCAGUGGUUUUGUUUGUGUUUUUGGUUGUUCCU,0.465
AGUCAAUGCAUUAACCCUCAUCUGUGUAUUAUUUGUUCACAAGUUCCAGAGGUUGAAGGACUGACUCUCACAUCUGUCCUGAGGUAGAGAGUAGGGGUGGGGACAAGGUA,0.922
GCUCCGUGUCCUUGUUUUUGACCUUGGCCCUUCCUGAAGUUGCUUUAUCUUACGAAGUAGCUACAGGGUUCUAGCAGUUUCCAGAAUAUAAUGUAGGGGGAUAGCGGGAU,0.369
GUUUUGCCAUGAACUGUGGCCCCAGUGUAUAGUGUUUCAGUGGGGGAGAAGCUGAAAGACCAAGACUCUUCCCAAGUUAGCUUGUCUCCUCUCCUGUCACCCUAAGAGCC,1.04

# Sample 4 — method: RNAcompete; molecule type: RNA; matrix: in vitro; concentration: 20 nM; notes: 7-mer, probes averaged, single round; relative to: mean of 7-mers; direction: higher = stronger binding
# Target: PABPC1L2, full length, GST fusion (mouse, UniProt A0ABA7IW68)
# Residues (chain): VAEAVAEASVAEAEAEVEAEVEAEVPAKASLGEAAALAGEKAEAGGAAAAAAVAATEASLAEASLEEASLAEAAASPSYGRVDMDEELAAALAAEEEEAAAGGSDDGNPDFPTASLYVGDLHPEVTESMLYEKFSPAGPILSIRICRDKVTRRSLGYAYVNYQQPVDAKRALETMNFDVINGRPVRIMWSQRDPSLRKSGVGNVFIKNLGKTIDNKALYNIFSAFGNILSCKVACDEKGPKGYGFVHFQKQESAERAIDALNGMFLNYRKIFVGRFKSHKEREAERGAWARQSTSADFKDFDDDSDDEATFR
Strand,7-mer Z-score
CGCACGU,-0.253
AGGCCCC,-0.4
UUACCCU,-0.262
AAGUUGC,0.14
UCGUUUA,-0.487
ACUGGGU,-0.0138
GAGGCCG,0.0859
UGAUUGA,-0.126
UUUAGGG,0.34
GGCGCUA,0.111
GCUUUGA,-0.253
UCGACGA,-0.122
UCACUCC,-0.262
AGCCGAU,-0.159
CGGCACG,0.0678
GGGGGGC,0.423

# Sample 5 — method: protein binding microarray; molecule type: double-stranded DNA, one strand shown; matrix: in vitro; concentration: not given; relative to: not given; direction: higher = stronger binding
# Target: Histone acetyltransferase KAT6A, winged helix 1, GST fusion (KAT6A, Homo sapiens, UniProt Q92794, residues 1-85)
# Notes: 8-mer, flanks averaged, mean of 2 arrays, mostly near background
# Target sequence (chain): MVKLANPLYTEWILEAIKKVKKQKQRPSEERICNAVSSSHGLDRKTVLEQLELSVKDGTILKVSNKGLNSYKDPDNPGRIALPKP
Strand,E-score
AATGGTTG,-0.0186
GGCGCAAC,0.215
CTTTTTCA,-0.267
CTAGGGAG,-0.158
ACTATGGG,-0.161
AGACTGAT,-0.129
GACATCCA,-0.101
GCGATGCC,0.282
CCGGATTC,-0.00287
AGCCTGTA,-0.0583
AGGAACGG,0.102
ACCACCCT,-0.217
GCAATTGA,0.0453
GCAGGACC,-0.00248
AACATGTT,0.0108
CGTGATAC,0.0083

# Sample 6 — method: universal PBM; molecule type: double-stranded DNA, one strand shown; matrix: in vitro; concentration: 600 nM; direction: higher = stronger binding
# Target: Sal-like protein 4, full length isoform A (SALL4, Homo sapiens, UniProt Q9UJQ4, residues 1-1053)
# UniProt Q9UJQ4, sequence (whole entry, looked up): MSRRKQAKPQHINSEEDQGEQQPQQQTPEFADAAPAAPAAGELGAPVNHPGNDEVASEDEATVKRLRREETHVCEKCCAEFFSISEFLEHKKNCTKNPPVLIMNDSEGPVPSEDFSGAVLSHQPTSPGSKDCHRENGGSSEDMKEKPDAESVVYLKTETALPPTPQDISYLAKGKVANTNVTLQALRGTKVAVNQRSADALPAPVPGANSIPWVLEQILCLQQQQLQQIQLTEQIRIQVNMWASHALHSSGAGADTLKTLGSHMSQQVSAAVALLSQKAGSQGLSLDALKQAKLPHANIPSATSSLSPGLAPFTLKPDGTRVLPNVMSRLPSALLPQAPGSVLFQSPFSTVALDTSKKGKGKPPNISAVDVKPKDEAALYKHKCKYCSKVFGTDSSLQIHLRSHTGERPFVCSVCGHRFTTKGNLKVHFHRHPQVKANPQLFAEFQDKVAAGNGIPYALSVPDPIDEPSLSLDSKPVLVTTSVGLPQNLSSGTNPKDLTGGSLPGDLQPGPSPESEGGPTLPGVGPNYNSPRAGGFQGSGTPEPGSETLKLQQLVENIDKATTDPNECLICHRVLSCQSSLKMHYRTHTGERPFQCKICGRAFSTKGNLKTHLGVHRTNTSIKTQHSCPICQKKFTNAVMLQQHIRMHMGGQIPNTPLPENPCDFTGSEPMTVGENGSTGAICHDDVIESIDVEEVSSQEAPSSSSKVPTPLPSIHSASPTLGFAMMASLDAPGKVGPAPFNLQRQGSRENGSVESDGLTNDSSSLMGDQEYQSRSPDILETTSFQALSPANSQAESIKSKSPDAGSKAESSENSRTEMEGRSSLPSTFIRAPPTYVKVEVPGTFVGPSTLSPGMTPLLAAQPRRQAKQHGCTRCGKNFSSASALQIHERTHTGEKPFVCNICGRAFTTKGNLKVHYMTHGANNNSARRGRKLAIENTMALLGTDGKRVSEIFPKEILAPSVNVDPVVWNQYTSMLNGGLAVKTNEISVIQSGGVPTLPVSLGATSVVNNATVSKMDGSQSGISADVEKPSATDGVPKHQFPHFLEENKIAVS
# Notes: 8-mer, flanks averaged, mean of replicates
Strand,E-score
AACCTCGG,-0.213
ACAAGTCC,-0.0274
AGCCGGCA,-0.294
GAAATTGA,0.202
ACTGCAAG,-0.0153
AGAGAGGA,-0.0978
AAGCGTGA,-0.0719
ACTGCGGG,-0.191
ACTGCATA,0.156
CCGGAGCC,-0.321
ACTCTCTC,-0.197
CTCAAGAC,-0.09
ACGACCAT,-0.0895
AAGCTATT,0.187
GCTGCCAA,-0.186
CGACAGGC,-0.303
AGGTCAAA,0.0387
AGAGAACA,0.0661
GACGCTCC,-0.176
ACTTGACA,0.0665
AACGAGTA,0.168

# Sample 7 — method: protein-binding microarray; molecule type: double-stranded DNA, one strand shown; matrix: in vitro; concentration: 2540 nM top; notes: 60-bp whole probe; together with: salmon DNA 0.4 mg/ml; relative to: random background probes; direction: higher = stronger binding; all sequences stand within: GCCTAGCAC … GTCTTGATTCGCTTGACGCTGCTG
# Target: Interferon regulatory factor 3, full length, phosphomimetic (IRF3, Homo sapiens, UniProt Q14653, residues 1-427, S386D/S396D/S398D/S402D/T404D/S405D)
# Target sequence (chain): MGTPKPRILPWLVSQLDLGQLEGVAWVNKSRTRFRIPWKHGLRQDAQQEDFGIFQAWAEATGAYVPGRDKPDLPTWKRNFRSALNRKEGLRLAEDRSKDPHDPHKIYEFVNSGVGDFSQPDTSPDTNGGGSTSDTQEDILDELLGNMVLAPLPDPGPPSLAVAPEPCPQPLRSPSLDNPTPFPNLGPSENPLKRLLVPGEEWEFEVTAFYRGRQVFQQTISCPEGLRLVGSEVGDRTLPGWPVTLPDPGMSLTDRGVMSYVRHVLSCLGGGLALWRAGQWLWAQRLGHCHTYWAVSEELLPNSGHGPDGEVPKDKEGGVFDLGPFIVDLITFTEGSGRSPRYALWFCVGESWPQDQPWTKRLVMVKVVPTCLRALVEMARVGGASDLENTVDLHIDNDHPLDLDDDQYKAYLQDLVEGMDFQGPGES
Strand,fitted relative affinity
GCTTCCTCCTACCCGACCCCGTGCTAG,0.692 z-score
TCAGATATCGGGTTTCGATTAGTGCTA,2.32 z-score
TTAGGACTGCTACTCCTTTAGTGCTAG,-0.444 z-score
TCAATTCTCTTCTTGCAACTGTGCTAG,1.71 z-score
GACGGACTGGGGTACCGGGACGTGCTA,-0.753 z-score
TTAGGTCTCGGTCTAGGTTAGTGCTAG,0.293 z-score
TCTCCTCTAGGTTCTCTGAGAGTGCTA,0.369 z-score
TTAGATATCGGTCTCGATTAGTGCTAG,1.63 z-score
GACGGTTTCGGAGTGGGGACGTGCTAG,5.12 z-score
TGTCCTTTTCTTTACTGATGGTGCTAG,5.75 z-score
GACGGACTGTACTTTCGGGACGTGCTA,0.731 z-score
TCAGGACTGCTTATCCTTTAGTGCTAG,0.0615 z-score
TTAGGTCTCCTCTTCCTTTAGTGCTAG,0.924 z-score
GACGATCTCAGACTGGATACGTGCTAG,0.519 z-score
TTAGGACTCCTTATCCTTTAGTGCTAG,1.26 z-score
TTAGAACTGAGTATCGAGTAGTGCTAG,-0.267 z-score
GGGTTTTTTAGGCAGACAGCGTGCTAG,-0.0883 z-score
TTAGGTATCGGGACTGGCTTAGTGCTA,1.25 z-score
GACGGACTGGACTGTCGGGACGTGCTA,-0.467 z-score
ACCTTTGTTTTTTTCTATATGTGCTAG,1.56 z-score
GGCGGTATCCTTATCCTGACGTGCTAG,5.62 z-score
TTATATTTCAGTATCGATTAGTGCTAG,2.31 z-score
GACGATTTCAGAATGGAGACGTGCTAG,1.94 z-score
CATCCGTTTCTTCTAGACTTGTGCTAG,2.96 z-score
TTCAGTTTCACTGCTGCCCTGTGCTAG,2.85 z-score

# For quick reference, copied from above (sample 1):
target,fold induction
"PhoP, residues 12 14 15 18 19 AYFRS (Escherichia coli, UniProt P23836)",19.8
"PhoP, residues 12 14 15 18 19 HHYTI (Escherichia coli, UniProt P23836)",1.26
"PhoP, residues 12 14 15 18 19 SFCSL (Escherichia coli, UniProt P23836)",30.4
